Measurements gathered from unrelated publications.
Lines come from different studies, so protocols differ. “And” joins repeats or separate records; there may be more than shown. ± marks the error that the study gave.

SMILES = Cc1noc(C)c1Cn1cc(N2C(=O)CN(Cc3cccc(OS(=O)(=O)O)c3)C2=O)cn1; system = Sprague-Dawley rat, male; conditions = oral, 30 mg/kg of parent drug, 4 h; quantity = plasma concentration; result = 3370 ng/mL
SMILES = CN1CCC[C@]1(C)/C=C/S(=O)(=O)NC(=O)Nc1c2c(cc3c1CC(O)C3)CCC2 (some centres unmarked); system = human, plasma; conditions = oral, 12.5 mg twice daily of parent drug, day 1, metabolite of dosed drug; quantity = AUC(0-tau); result = 6.6 µg·h/mL
SMILES = CC(C)C[C@H](NC(=O)[C@H](CCCNC(=N)N)NC(=O)[C@H](Cc1ccccc1)NC(=O)[C@H](Cc1ccccc1)NC(=O)[C@@H](NC(=O)[C@H](CO)NC(=O)[C@H](CO)NC(=O)[C@H](CC(=O)O)NC(=O)[C@H](CO)NC(=O)[C@H](CO)NC(=O)[C@H](CC(=O)O)NC(=O)[C@H](CO)NC(=O)[C@H](CO)NC(=O)[C@H](CC(=O)O)NC(=O)[C@H](CO)NC(=O)[C@H](CO)NC(=O)[C@H](CC(=O)O)NC(=O)[C@H](CO)NC(=O)[C@H](CO)NC(=O)[C@H](CC(=O)O)NC(=O)[C@H](CO)NC(=O)[C@H](CO)NC(=O)[C@H](CC(=O)O)NC(=O)[C@H](CO)NC(=O)[C@H](CO)NC(=O)[C@H](CC(=O)O)NC(=O)[C@H](CO)NC(=O)[C@H](CO)NC(=O)[C@@H](N)CC(=O)O)[C@@H](C)O)C(=O)N[C@@H](Cc1ccccc1)C(=O)N[C@@H](CC(N)=O)C(=O)N[C@@H](CCCNC(=N)N)C(=O)N[C@@H](C)C(=O)N[C@@H](CCCCN)C(=O)N[C@@H](CCCNC(=N)N)C(=O)N[C@@H](Cc1c[nH]cn1)C(=O)N[C@@H](Cc1c[nH]cn1)C(=O)NCC(=O)N[C@@H](Cc1ccc(O)cc1)C(=O)N[C@@H](CCCCN)C(=O)N[C@@H](CCCNC(=N)N)C(=O)N[C@@H](CCCCN)C(=O)N[C@@H](Cc1ccccc1)C(=O)N[C@@H](Cc1c[nH]cn1)C(=O)O; assay = HPLC-UV; system = human saliva; conditions = 0.5 h, 37 °C, together with: initial 1 mg/mL; quantity = peptide concentration; result = 0.994 mg/mL
SMILES = O=C(Nc1cnccc1-c1ccc([18F])nc1)c1ccnc(NC(=O)C2CC2)c1; system = FVB/NJ mice (both sexes), lung; conditions = intravenous, dose not given, 120 min; quantity = SUV; result = 0.113
SMILES = CCCCN1C(=O)c2cccc3c(NCCCCCCCCCCN4CCOCC4)ccc(c23)C1=O; system = dichloromethane; quantity = absorption maximum; result = 429 nm
SMILES = C/C(N)=N/C(=N\S(=O)(=O)c1ccc(C(F)(F)F)cc1)N1C[C@H](c2ccccc2)C(c2ccc(Cl)cc2)=N1; system = C57BL/6 mouse, lung; conditions = intravenous, 10 mg/kg; quantity = half-life; result = 1.3 h
SMILES = C=C(NC(=O)c1csc(-c2nc3c(cc2O)-c2nc(cs2)C(=O)NC(C(C)O)C(=O)NC(=C(C)OC)c2nc(cs2)C(=O)NC2c4nc(cs4)C(=O)NC(COC(=O)c4c5c6c(cccc6n4O)COC(=O)C(OC4CC(C)(O)C(N(C)C)C(C)O4)C2OC5)c2nc-3cs2)n1)C(N)=O (centres unmarked); system = cynomolgus monkey, female, plasma; conditions = intravenous infusion, 9 mg/kg single dose; quantity = MRT(0-last); result = 1.69 h
SMILES = CN(CCNCc1cc(C(=O)[O-])ccc1[O-])CCNCc1cc(C(=O)[O-])ccc1[O-].[Cl-].[Fe+3].[K+].[K+]; system = mouse serum; conditions = 0.20 mM, 4 h, outcome no effect; quantity = relaxivity change; result = no effect
SMILES = CCCC[C@H](NC(=O)COCCOCCNC(=O)CN1CCN(CC(=O)O)CCN(CC(=O)O)CC1)C(=O)N[C@H]1CC(=O)NCCCC[C@@H](C(N)=O)NC(=O)[C@H](Cc2c[nH]c3ccccc23)NC(=O)[C@H](CCCNC(=N)N)NC(=O)[C@@H](Cc2ccccc2)NC(=O)[C@H](Cc2c[nH]cn2)NC1=O [fluorine-18 labelled]; system = C57 mice, B16/F10 melanoma, urine; conditions = intravenous, 0.37 MBq, 0.5 h; quantity = urinary excretion; result = 68.5 ± 3.74%
SMILES = CC(=O)N([O-])CCCCCNC(=O)CCC(=O)N([O-])CCCCCNC(=O)CCC(=O)N([O-])CCCCCN.[89Zr+4]; system = PBS; conditions = 5 days, pH 7, 37 °C; quantity = intact compound; result = 95.6 ± 4.2%
SMILES = CC(C)(O)c1ncc([S@](N)(=O)=NC(=O)Nc2c3c(cc4c2CCC4)CCC3)s1; system = healthy human; conditions = oral, 30 mg single dose, capsule formulation; quantity = nervous system adverse events; result = 17%
SMILES = CCCCN1C(=O)c2cccc3c(NCCN4CCOCC4)ccc(c23)C1=O; system = ethylene glycol; quantity = absorption maximum; result = 442 nm
SMILES = CCC[C@H]1CC[C@H](c2ccc(NC(=S)NC[C@@H]3[C@@H](O)[C@@H](O)[C@H]4[C@H](O)CCCN43)cc2)CC1; system = NOD-SCID mouse, serum; conditions = ip, 30 mg/kg; quantity = TBIL; result = 0.55 ± 0.18 mg/dL
SMILES = CC[C@H](C)[C@@H]1NC(=O)[C@H](Cc2ccc(O)cc2)NC(=O)CCCSC[C@@H](C(=O)N(CC(=O)N[C@@H](CC(C)C)C(=O)NCC(N)=O)Cc2ccc(F)cc2)NC(=O)[C@H](CC(N)=O)NC(=O)[C@H](CCC(N)=O)NC1=O; system = human; conditions = intranasal, 200 µg repeated doses; quantity = drug-related headache; result = 17%
SMILES = O=Cc1cc(OCc2ccccc2)ccc1B(O)O; assay = chemical stability, HPLC-MS; system = borate buffered saline; conditions = pH 10.2, no N-acetyl-lysine; quantity = degradation rate constant; result = 0.1 h⁻¹
SMILES = COc1ccc2c(c1)CCn1c[n+]3c(c1-2)-c1ccc(OC)cc1CC3; system = female NSG mice, blood; conditions = 6 mg/kg, day 20, 5 days per week; quantity = MCHC; result = 32.2 ± 0.74 g/dL
SMILES = COc1cccc(OC)c1-c1cc(C(=O)NC2(C(=O)O)C3CC4CC(C3)CC2C4)nn1-c1ccc(C(=O)N(C)CCOCCOCCN(C)C(=O)[C@H](CCCCNC(=O)[C@H](CC(C)C)NC(=O)C2OC2C(=O)O)NC(=O)CN2CCN(CC(=O)[O-])CCN(CC(=O)[O-])CCN(CC(=O)[O-])CC2)cc1C(C)C.[177Lu+3] (mixture of isomers); system = mouse, HT-29 xenograft; conditions = 24 h post injection, biodistribution; scale = relative to: tumour over liver uptake; quantity = tumour-to-liver ratio; result = 1.85
SMILES = O=C(Nc1cnccc1-c1ccc([18F])cc1)c1ccnc(NC(=O)C2CC2)c1; system = mice, transgenic, GSK-3β, early-stage, muscle; conditions = intravenous, dose not given, 120 min, together with: tariquidar 15 mg/kg i.v. pre-dose; quantity = SUV; result = 0.2
SMILES = Cc1nn(-c2nc3c(F)cc(F)cc3s2)c(O)c1C(c1ccc(C(F)(F)F)cc1)c1c(C)nn(-c2nc3c(F)cc(F)cc3s2)c1O; system = ICR mouse; conditions = intraperitoneal, 10 mg/kg, 24.0 h; quantity = plasma concentration; result = 313 ng/mL and 329 ng/mL and 150 ng/mL
SMILES = CCCCN1C(=O)c2cccc3c(NCCCCCCN4CCOCC4)ccc(c23)C1=O; system = dichloromethane; quantity = fluorescence quantum yield; result = 0.99
SMILES = CC(C)C[C@H](NC(=O)[C@@H](CCCCNC(=O)[C@@H](Cc1ccccc1)NC(=O)CCCCCCCNC(=O)CN1CCN(CC(=O)O)CCN(CC(=O)O)CCN(CC(=O)O)CC1)NC(=O)[C@H](Cc1ccc(O)cc1)NC(=O)[C@H](CO)NC(=O)[C@H](Cc1c[nH]c2ccccc12)NC(=O)[C@H](Cc1c[nH]cn1)NC(=O)[C@@H]1CCC(=O)N1)C(=O)N[C@@H](CCCNC(=N)N)C(=O)N1CCC[C@H]1C(=O)NCC(N)=O [indium-111 labelled]; system = male athymic nude mice, DU-145 xenograft, tumour; conditions = intravenous, 0.037 MBq, 0.5 h; quantity = tumour uptake; result = 1.13 ± 0.36 %ID/g
SMILES = CSCC[C@H](N)C(=O)N[C@@H](CO)C(=O)N[C@H](C(=O)N[C@@H](C)C(=O)NCC(=O)N[C@@H](CC(C)C)C(=O)N[C@@H](CCCCN)C(=O)N[C@@H](CCCCN)C(=O)N[C@@H](CCC(N)=O)C(=O)N[C@@H](Cc1c[nH]c2ccccc12)C(=O)N[C@@H](Cc1c[nH]cn1)C(=O)N[C@@H](CCCCN)C(=O)N[C@@H](C)C(=O)N[C@H](C(=O)N[C@@H](CCC(N)=O)C(=O)N[C@@H](CCCCN)C(=O)N[C@H](C(=O)N[C@@H](CO)C(=O)N[C@@H](CCC(=O)O)C(=O)N[C@@H](CCCCN)C(=O)N[C@H](C(=O)NCC(=O)NCC(=O)N[C@@H](C)C(N)=O)C(C)C)C(C)C)[C@@H](C)O)C(C)C; assay = circular dichroism; system = aqueous TFE; conditions = 50 µM, pH 7.4, 20 °C; quantity = TFE midpoint; result = 2.58 ± 0.03 M
SMILES = Cc1cc(C)n(CCN(CCN)CCCCCCNC(=O)[C@@H](N)Cc2c[nH]cn2)n1.[99Tc+].[C-]#[O+].[C-]#[O+].[C-]#[O+]; system = BALB/c nude mice, A549 xenograft, tumour; conditions = dose not given, 4 h; scale = relative to: 15 min post-injection; quantity = tumour activity reduction; result = ~43%
SMILES = Cc1ccc(OCC(=O)N(Cc2cccs2)c2ccn[nH]2)cc1; system = rabbit plasma; conditions = 750 ng/mL, 24 h, 37 °C; quantity = remaining compound; result = 20.1%
SMILES = Cc1c(Cc2ccc(Cl)c(O[C@@H](C)C(=O)O)c2)c2ccc(C(=O)N[C@@H](C)c3cc(F)cc(C(C)(C)C)c3)cc2n1C; assay = metabolic stability; system = mouse, liver microsomes; quantity = half-life; result = 0.867 h
SMILES = CN1CCC[C@]1(C)/C=C/S(=O)(=O)NC(=O)Nc1c2c(cc3c1C(O)CC3)CCC2 (some centres unmarked); system = human, plasma; conditions = oral, 100 mg twice daily of parent drug, day 14, metabolite of dosed drug; quantity = AUC(0-tau); result = 212 µg·h/mL

Some of these lines once more:
SMILES = CN1CCC[C@]1(C)/C=C/S(=O)(=O)NC(=O)Nc1c2c(cc3c1C(O)CC3)CCC2 (some centres unmarked); system = human, plasma; conditions = oral, 100 mg twice daily of parent drug, day 14, metabolite of dosed drug; quantity = AUC(0-tau); result = 212 µg·h/mL
SMILES = COc1cccc(OC)c1-c1cc(C(=O)NC2(C(=O)O)C3CC4CC(C3)CC2C4)nn1-c1ccc(C(=O)N(C)CCOCCOCCN(C)C(=O)[C@H](CCCCNC(=O)[C@H](CC(C)C)NC(=O)C2OC2C(=O)O)NC(=O)CN2CCN(CC(=O)[O-])CCN(CC(=O)[O-])CCN(CC(=O)[O-])CC2)cc1C(C)C.[177Lu+3] (mixture of isomers); system = mouse, HT-29 xenograft; conditions = 24 h post injection, biodistribution; scale = relative to: tumour over liver uptake; quantity = tumour-to-liver ratio; result = 1.85
SMILES = O=Cc1cc(OCc2ccccc2)ccc1B(O)O; assay = chemical stability, HPLC-MS; system = borate buffered saline; conditions = pH 10.2, no N-acetyl-lysine; quantity = degradation rate constant; result = 0.1 h⁻¹
SMILES = C=C(NC(=O)c1csc(-c2nc3c(cc2O)-c2nc(cs2)C(=O)NC(C(C)O)C(=O)NC(=C(C)OC)c2nc(cs2)C(=O)NC2c4nc(cs4)C(=O)NC(COC(=O)c4c5c6c(cccc6n4O)COC(=O)C(OC4CC(C)(O)C(N(C)C)C(C)O4)C2OC5)c2nc-3cs2)n1)C(N)=O (centres unmarked); system = cynomolgus monkey, female, plasma; conditions = intravenous infusion, 9 mg/kg single dose; quantity = MRT(0-last); result = 1.69 h
